Results of several laboratories.
A part holds a random share of what one study measured.

Sample 1 — read-out: peptide-MHC binding; form: peptide; concentration: concentration not given
Target: HLA class I histocompatibility antigen, A alpha chain, allele A*25:01 (Homo sapiens, UniProt P04439)
Sequence	binding
RTVSVMFFI	inactive
SSLRYGNVL	inactive
FTFDLTALK	inactive
RLMRTNFLI	inactive
YMMDGNECP	inactive
EVNAHIHTM	active
SVIDHIHYM	active
RRRPVTRPL	inactive
YNAKRIETV	inactive
AVDADDSHF	inactive
DEFLKVPEW	inactive
RTFDRFFEE	inactive
TRAPAPFPL	inactive
LQPSDTLLF	inactive
AMPKTIYEL	inactive
MTRGLLGSY	active
VKINIFPLY	inactive

Sample 2 — method: EMSA with sequencing; form: double-stranded DNA, one strand shown; matrix: in vitro; concentration: 10 and 20 nM; reference: negative control set to 0; direction: higher = stronger binding
Target: Hepatocyte nuclear factor 3-alpha (Foxa1, Mus musculus, UniProt P35582, residues 1-468, full length assumed)
Setting: whole designed probe, mean of two concentrations, ends assumed
Construct (chain): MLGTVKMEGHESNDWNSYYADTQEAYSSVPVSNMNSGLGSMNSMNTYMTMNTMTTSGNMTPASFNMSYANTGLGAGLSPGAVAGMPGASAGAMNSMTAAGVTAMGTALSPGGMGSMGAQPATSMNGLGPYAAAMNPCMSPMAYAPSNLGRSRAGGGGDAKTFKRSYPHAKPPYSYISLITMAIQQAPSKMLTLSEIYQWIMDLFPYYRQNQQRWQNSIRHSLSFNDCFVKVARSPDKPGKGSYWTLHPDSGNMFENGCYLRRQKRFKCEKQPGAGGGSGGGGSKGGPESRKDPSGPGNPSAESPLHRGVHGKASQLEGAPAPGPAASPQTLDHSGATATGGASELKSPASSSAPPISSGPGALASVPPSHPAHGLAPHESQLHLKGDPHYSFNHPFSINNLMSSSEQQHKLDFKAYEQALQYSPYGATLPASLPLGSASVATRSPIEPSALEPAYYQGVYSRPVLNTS
Oligonucleotide	normalised bound fraction [ratio]
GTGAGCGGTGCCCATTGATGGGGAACGTCTCCTGGGGTTCTGCGAAATCTAGCCAGAAGCATCTCCATCTCGGTGTCCATTTCGATCCAACTAAGCTTCCAGTAAAGACACTGCAGCAATGTAATCTTGCAACCTAAGCTAGCATGAGGTTCTAGATAGTAAGCCTGAACTAGGAATAAGGCAACTGAACTGTGACTTTCGGGCCAGGGTCATCCAGCTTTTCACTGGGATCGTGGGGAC	-0.0938
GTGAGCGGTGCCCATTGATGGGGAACGCCTGGAAGAAAGGGGCTGTTTTCCTTTTCACTATTATTATTTTAAACTTTGATGGGCTGCTGACGTCTGGAAATATGCTTGACGCCTGTAAAGCAAATAAGCCACATCACAAGCAGAAAGCCTGTGGGATTTTCTGGTGCCCTATTTCTAGAACCTTCCCTGTTCTGACCATTTGAAGGTGCTTATTTAGTCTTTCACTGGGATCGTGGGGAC	0.284
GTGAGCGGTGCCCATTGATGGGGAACCTAAAGATGTTTTTTTCTTTTTAAATAAAGTAGATGTGGAGTTTTATCAAATTTTTTTCTGCACCTATTGATGGTTGTAATTTTTTTCAATAAGTAAACATGGTAAGCTAATTGATTTTCTTGTGTAAAACCATCTTTAACATTCCTGAGGTAAACACTACTGGATTTTTTTGCTAATATTTTGCTAATGGTCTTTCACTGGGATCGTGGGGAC	0.397
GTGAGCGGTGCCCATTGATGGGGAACCTTCTTTCCTTCCTTCTTTCTTTCTCTTTCCTGTTTAAGTGAAGTGTGCAGAGGCAGATTGGGGTAGATGTTTACCTCTGTTGACATCAATGTGTCAACAGCTTCCCACTGCCTCACTGGGCCAGGTGGGGGCAGAAACCCAGCTCTCCAATGGGTGACATCCACACAGGAGGCAGGGGGGAAGTAACCTGTCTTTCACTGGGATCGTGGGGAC	0.121
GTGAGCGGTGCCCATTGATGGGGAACATCTTCCCCCTCTTCCTTGCCCCACCAGCTCACCTACGGGGGTTATTTGCACAAAGGAAAATAAATAAAGCCGGCATTCGTTAACCCTCTTCTGGCGCAAACTGCTGTTTGCTCTGCATGAATCATGGTCCTTACGCGAGGCGTGGCTCCGGGAGAGCAAAGCACCGTGTCAGGCGCATGATCCGGGCTCGCCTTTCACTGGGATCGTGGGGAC	0.383
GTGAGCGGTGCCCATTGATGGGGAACTTTCCAGCCCTTAGTTTCTGGCATTTAACCTGACTCTGGTCCCTGAATGGCATGGGAGTGCTTTCAACCACAGGTTTCCACATTCATGCAAAAGCAAACAAGTGTGATCTACAGAGATCTCTGACTCATTCTTATTTGCTTTGTGTTTCCAATGGAGAAAGAGCTTGGGAAGGGAGGATCCTAATTGTCTAAATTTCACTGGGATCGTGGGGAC	0.549
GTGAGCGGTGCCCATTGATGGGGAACTCTGGACAACATGTCTAGTGTAAACTTTCCTCTAAATAATAAATTTGTAGTTCAGCAACAAGCTAGACATCTCTGGGTAACATTTCCACCTTCTTGTTTACATTGTATGTCCAGCCTTTGGAAAAGCGTTTGGTAAAATATAAACTGGTTGGAAAAAAAATTAAAATATCACCAACACTATTTTTAAAAGAGATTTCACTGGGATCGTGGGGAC	0.484
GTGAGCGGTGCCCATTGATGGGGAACATCTTCCCCCTCTTCCTTGCCCCACCAGCTCACCTTCCCGGGTTATTTGCAGATAGGAAAATAAATAAAGCCGGCATTCGTTAACCCTCTTCTGGCGCAAACTGCTGTTTGCTCTGGATCTAACATGGTCCTTTGGCGACGCCAGGCTCCGGGAGAGCAAAGCACCGTGTCAGGGCCATGATCCGGGCTCGCCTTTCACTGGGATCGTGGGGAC	0.343

Sample 3 — method: Spec-seq; form: double-stranded DNA, one strand shown; matrix: in vitro; concentration: not given; setting: whole probe, mean of replicates; reference: not given; direction: lower = stronger binding; constant ends, left off below: GAGTCGTCTCGTCAGCAC … CCGTAGAGCACTCAGGTC
Target: Transcription factor SOX-2, HMG box (Sox2, Mus musculus, UniProt P48432, residues 41-119)
UniProt P48432, sequence (41-119, looked up): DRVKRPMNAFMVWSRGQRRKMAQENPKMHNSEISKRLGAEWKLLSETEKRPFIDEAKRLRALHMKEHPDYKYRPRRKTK
Oligonucleotide	relative binding energy
CATTTAT	-1.19 ln ratio
TGGTGTT	0.593 ln ratio
CATTTGT	-1.49 ln ratio
GTGTGTT	0.567 ln ratio
CATGTTG	0.564 ln ratio
CATAGTA	-0.803 ln ratio
CATATCA	0.299 ln ratio
TTTCGTT	0.618 ln ratio

Single results of other studies
SMILES	target	read-out	method	concentration	quantity	result
Nc1c(C(=O)NCc2ccc(C(=O)NCCCC3CCCCC3)cc2)cnn1-c1ccccc1	D(1B) dopamine receptor (DRD5, Homo sapiens, UniProt P21918)	binding	radioligand binding	10 µM	inhibition	28.4%

Some of these lines once more (sample 3):
Oligonucleotide	relative binding energy
TGGTGTT	0.593 ln ratio
CATTTAT	-1.19 ln ratio
CATGTTG	0.564 ln ratio
GTGTGTT	0.567 ln ratio
TTTCGTT	0.618 ln ratio
CATATCA	0.299 ln ratio
